Experimental data collected from several papers.
Every numbered part comes from another study and shows a few of its results, in no order. Substitutions count along the parent as printed.

Study 1
Target: ABI1, truncated, D143A, DHFR fusion (Arabidopsis thaliana)
Technique: DHFR PCA, deep sequencing
Matrix: yeast
Notes: methotrexate growth selection, single substitutions
With: (+)-ABA 0.032 µM
Reference: wild-type fitted maximum
Reading: higher = stronger binding
Parent: PYL1, truncated, DHFR fusion (Arabidopsis thaliana); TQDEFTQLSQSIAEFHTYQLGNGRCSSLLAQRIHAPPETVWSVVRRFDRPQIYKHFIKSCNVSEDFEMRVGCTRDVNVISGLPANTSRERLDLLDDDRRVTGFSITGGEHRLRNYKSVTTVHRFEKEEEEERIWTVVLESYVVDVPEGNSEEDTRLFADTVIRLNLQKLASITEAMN
| Change | relative binding score [%] |
| --- | --- |
| A13G | 7.85 |
| A175N | 20.3 |
| L156I | 7.88 |
| D3R | 12 |
| G23R | 18.2 |
| E129T | 28.6 |
| K54G | -2.13 |
| G23Y | 1.14 |
| I105A | -0.885 |
| Q51I | -8.75 |
| D153S | -2.31 |
| S26M | 0.892 |
| T135A | -4.63 |
| T160R | -2.64 |
| V100I | 13.8 |
| S27H | 8.71 |
| D75W | 17.3 |
| A30V | 13.3 |
| R69F | -5.76 |
| E127F | 27.3 |
| E151L | 20 |
| I52R | 3.98 |
| L91V | 4.02 |
| L93P | 1.38 |

Study 2
Target: RNA binding protein fox-1 homolog 2, RRM domain, GST-SBP tag (RBFOX2, Homo sapiens, UniProt O43251-10, residues 100-194)
Technique: RNA Bind-n-Seq
Form: RNA
Matrix: in vitro
Tested at: 365 nM
Notes: natural RNA segment, single round, ends assumed
Reference: no-protein control
Reading: higher = stronger binding
Target sequence (chain): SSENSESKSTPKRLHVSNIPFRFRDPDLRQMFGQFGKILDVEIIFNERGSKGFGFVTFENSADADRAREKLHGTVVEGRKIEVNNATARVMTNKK
| Oligonucleotide | RBNS enrichment (R) |
| --- | --- |
| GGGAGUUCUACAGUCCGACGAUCAAGAAAAUGCUUUUGGUUACUGAUACAUUUUUCCCUAAUUGACCUUUUCUAUUACUAAAUCUGAAAUAAAAUCAGUUUCUUUCCAGUUUAAAUGUUAACCAUUUGCAGAUUGGAAUUCUCGGGUGCCAA | 0.385 |
| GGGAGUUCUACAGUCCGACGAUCCUUCUAUUGUUUGGGCCUUGUGGAUAAUGUACAGAUUUAAAAACAAAUCUUGUUGCUGAUUUGUCCAUUUCUUUCCCUGCACUUUGUUACAUCUGGGAUACAGUCUAACUUGGAAUUCUCGGGUGCCAA | 0.272 |
| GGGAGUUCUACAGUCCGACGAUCCAGUCAUCAGUGUGCCCUUGAAGCUAAGAGGGGAUUCCAGCCCAGGAAACGUCCCUAGGUAGGCUUGGUCAUUUGUGGGUUUUUCCCAGGCCUGACGUUAAGAAUGGUGAUGGAAUUCUCGGGUGCCAA | 0.398 |
| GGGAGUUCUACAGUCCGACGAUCUGUCUUAAUGCUGAGAAGCAGCAGCUUUGGGGUUGAAUUUACUUGAAUGGUUUAAAAAGAUUGCAUUGUUACAAAGCUAGAAAAAAUUUAUGUAUGAAAAAUGAUCCUAGUGGAAUUCUCGGGUGCCAA | 3.13 |
| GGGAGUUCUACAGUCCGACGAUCAUCCUAAGAAUGAUGAACCAUUGUCCUAGCUGCCUCCCACAUCAAUGCAUGAGGCCAAGAAACUAGCCAAGCUUCCCUUUAGGGGCAUUUGAGCUCUGGGGAGAAAGGAUUGGAAUUCUCGGGUGCCAA | 17.8 |
| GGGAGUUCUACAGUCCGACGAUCGUGUGUGCUGUGGUGCACCGCCUGGCUUUGGGGGUCCCGGAGGCAGGCUGCCUAGACUCACAGCCUCGGGACCGUUGCCACGGCCUGUCUUCUCGUUCAGGCCUGCCUCUUGGAAUUCUCGGGUGCCAA | 0.224 |
| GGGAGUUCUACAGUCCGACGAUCCCACUUUCCCCAGGAACACUCCCGUAGCUCCUUCAUCCAUUGCCAGUGGAGGGUUUUUAUUUUUAUUUUUUUAAAAGUUUAGGUGCCUUUGCGGAUGACCUCAUUUUGAUUGGAAUUCUCGGGUGCCAA | 1.87 |
| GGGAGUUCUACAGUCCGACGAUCAGACACUCCCGCUGUAUGUGGUGAGCUUGGCUGGAAACUUGCCAUAGCCAGGACUGAGGGGCUGGCCCCAGGACGCUCUCAAGAAAUGGGGCUACUGUGGUUUAGACACUUGGAAUUCUCGGGUGCCAA | 0.904 |

Study 3
Target: Sal-like protein 4, full length isoform B (SALL4, Homo sapiens, UniProt Q9UJQ4-2, residues 1-616)
Technique: universal PBM
Form: double-stranded DNA, one strand shown
Matrix: in vitro
Tested at: not given
Notes: 8-mer, flanks averaged, mean of replicates
Reading: higher = stronger binding
| Oligonucleotide | E-score |
| --- | --- |
| GTCAAAGA | 0.163 |
| TCGCCAAA | -0.0448 |
| CGTACCTC | -0.19 |
| CAATACTC | 0.143 |
| AATACCCG | 0.0107 |
| AAGAAGCA | -0.00241 |
| CGGGAGTC | -0.211 |
| AAGCGAGC | -0.158 |
| CAGGCGAA | -0.104 |
| ATCTCGTA | 0.24 |
| CCACGCAG | -0.0949 |
| ATCGGGAG | -0.0702 |
| TAGAACGA | 0.14 |
| ATTAACGA | 0.25 |
| AATACTAC | 0.268 |
| AGTCTGCA | -0.107 |
| ATTACCGC | 0.114 |
| ATTTGTGC | 0.156 |
| CCGTTGGA | -0.252 |
| GGCCTACA | -0.132 |
| TACCGCTA | 0.0693 |
| CCTACGGA | -0.164 |
| CAAAGCCG | 0.0187 |
| CACGATAG | 0.0257 |
| AACTTAGA | 0.0727 |

Study 4
Target: Ras GTPase-activating protein-binding protein 1, full length (G3BP1, Homo sapiens, UniProt Q13283)
UniProt Q13283, sequence (whole entry, looked up): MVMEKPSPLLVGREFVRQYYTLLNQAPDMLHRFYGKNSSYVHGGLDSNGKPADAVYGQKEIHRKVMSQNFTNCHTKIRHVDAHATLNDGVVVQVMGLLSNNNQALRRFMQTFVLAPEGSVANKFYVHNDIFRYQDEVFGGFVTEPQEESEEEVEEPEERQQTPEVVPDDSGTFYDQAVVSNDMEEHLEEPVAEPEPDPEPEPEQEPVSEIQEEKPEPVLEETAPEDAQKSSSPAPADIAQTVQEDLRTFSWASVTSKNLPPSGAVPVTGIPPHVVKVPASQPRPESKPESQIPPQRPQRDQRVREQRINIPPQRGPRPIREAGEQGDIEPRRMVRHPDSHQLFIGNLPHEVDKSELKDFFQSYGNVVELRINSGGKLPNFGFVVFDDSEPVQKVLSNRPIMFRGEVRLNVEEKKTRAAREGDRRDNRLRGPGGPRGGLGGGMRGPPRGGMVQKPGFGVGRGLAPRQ
Technique: RNA Bind-n-Seq
Form: RNA
Matrix: in vitro
Tested at: 200 nM
Notes: whole 134-nt RNA, ends assumed
With: 150 mM KCl
Reference: input library
Reading: higher = stronger binding
| Oligonucleotide | log2 enrichment |
| --- | --- |
| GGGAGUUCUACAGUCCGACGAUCCCUGUGCUACACAUCGUAUGUACCGAAUCGGGGUUUUUUUGGGGUGGGGAAAAAAAGGGGAAAGUAUUAUGUUACGCCGUUCGGAUCUGCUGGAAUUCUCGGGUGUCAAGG | 0.205 |
| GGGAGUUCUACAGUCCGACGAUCGUCCUGUGCUACACAUCGUAUGUACCGAAUCGGGUUUGGGAAAAAAAGGGAAAAAGGGAAAGUAUUAUGUUACGCCGUUCGGAUCUGCACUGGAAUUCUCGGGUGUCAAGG | -0.325 |
| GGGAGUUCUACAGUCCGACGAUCAGUCCUGUGCUACACAUCGUAUGUACCGAAUCGGGGUUUGGGGUUUGGGGAAAGGGGAAAGUAUUAUGUUACGCCGUUCGGAUCUGCACUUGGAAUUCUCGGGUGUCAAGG | 0.782 |
| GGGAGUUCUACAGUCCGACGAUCUGGGAGGUGGAUUUUGUUUAUUUUUUUCGCUCAUUUCCAGGGGUGGGAAUUUUUUUUUAAUAUGUGUCAUGAAUAAAGUUGUUUUUGAAAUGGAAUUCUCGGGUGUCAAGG | 0.196 |
| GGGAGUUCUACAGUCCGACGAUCAAGUCCUGUGCUACACAUCGUAUGUACCGAAUCGGAAAAAAAGGUUUUUGGUUUGGAAAGUAUUAUGUUACGCCGUUCGGAUCUGCACUUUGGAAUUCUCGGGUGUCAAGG | -1.72 |
| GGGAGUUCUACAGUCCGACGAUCGUCCUGUGCUACACAUCGUAUGUACCGAAUCGGGUUUUUUUGGGUUUUUUUGGGUGGGAAAGUAUUAUGUUACGCCGUUCGGAUCUGCACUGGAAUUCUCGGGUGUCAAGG | -0.232 |
| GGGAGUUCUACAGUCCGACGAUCCACAGACAACACGCACCCACACAGACACAGAGGGAAGGGGUUGGGAUGGGGACAGGGUGCACAGCAGGGCGGGGUAGGACCCGAGCCCCUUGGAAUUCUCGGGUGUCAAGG | 1.86 |
| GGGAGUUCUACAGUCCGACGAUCCCUGUGCUACACAUCGUAUGUACCGAAUCGGGGAAAAAAAGGGGAAAAAAAGGGGAGGGGAAAGUAUUAUGUUACGCCGUUCGGAUCUGCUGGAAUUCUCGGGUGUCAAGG | 0.329 |
| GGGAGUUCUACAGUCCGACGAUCAAGUCCUGUGCUACACAUCGUAUGUACCGAAUCGGUUUGGUUUUUUUGGAAAAAGGAAAGUAUUAUGUUACGCCGUUCGGAUCUGCACUUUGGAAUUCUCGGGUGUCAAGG | -1.23 |

For quick reference, copied from above (study 4):
| Oligonucleotide | log2 enrichment |
| --- | --- |
| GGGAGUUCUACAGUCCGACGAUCGUCCUGUGCUACACAUCGUAUGUACCGAAUCGGGUUUUUUUGGGUUUUUUUGGGUGGGAAAGUAUUAUGUUACGCCGUUCGGAUCUGCACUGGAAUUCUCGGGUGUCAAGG | -0.232 |
| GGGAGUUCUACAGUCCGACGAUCAAGUCCUGUGCUACACAUCGUAUGUACCGAAUCGGUUUGGUUUUUUUGGAAAAAGGAAAGUAUUAUGUUACGCCGUUCGGAUCUGCACUUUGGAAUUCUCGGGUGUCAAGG | -1.23 |
| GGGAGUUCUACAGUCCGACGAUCCACAGACAACACGCACCCACACAGACACAGAGGGAAGGGGUUGGGAUGGGGACAGGGUGCACAGCAGGGCGGGGUAGGACCCGAGCCCCUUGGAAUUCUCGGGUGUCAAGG | 1.86 |
| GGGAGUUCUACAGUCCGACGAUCCCUGUGCUACACAUCGUAUGUACCGAAUCGGGGAAAAAAAGGGGAAAAAAAGGGGAGGGGAAAGUAUUAUGUUACGCCGUUCGGAUCUGCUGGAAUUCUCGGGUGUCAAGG | 0.329 |
| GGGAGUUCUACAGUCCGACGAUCAGUCCUGUGCUACACAUCGUAUGUACCGAAUCGGGGUUUGGGGUUUGGGGAAAGGGGAAAGUAUUAUGUUACGCCGUUCGGAUCUGCACUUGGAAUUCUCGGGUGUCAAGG | 0.782 |
| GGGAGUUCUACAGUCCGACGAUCAAGUCCUGUGCUACACAUCGUAUGUACCGAAUCGGAAAAAAAGGUUUUUGGUUUGGAAAGUAUUAUGUUACGCCGUUCGGAUCUGCACUUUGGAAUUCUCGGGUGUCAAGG | -1.72 |
| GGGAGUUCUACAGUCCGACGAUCUGGGAGGUGGAUUUUGUUUAUUUUUUUCGCUCAUUUCCAGGGGUGGGAAUUUUUUUUUAAUAUGUGUCAUGAAUAAAGUUGUUUUUGAAAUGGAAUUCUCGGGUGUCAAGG | 0.196 |
| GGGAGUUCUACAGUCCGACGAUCCCUGUGCUACACAUCGUAUGUACCGAAUCGGGGUUUUUUUGGGGUGGGGAAAAAAAGGGGAAAGUAUUAUGUUACGCCGUUCGGAUCUGCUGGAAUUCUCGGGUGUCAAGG | 0.205 |
| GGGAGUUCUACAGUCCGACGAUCGUCCUGUGCUACACAUCGUAUGUACCGAAUCGGGUUUGGGAAAAAAAGGGAAAAAGGGAAAGUAUUAUGUUACGCCGUUCGGAUCUGCACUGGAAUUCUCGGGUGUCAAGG | -0.325 |
